# Assay results pooled from the literature.
# Every numbered part comes from another study and shows a few of its results, in no order. Positions count from the first letter of the parent shown.

# Study 1
# Target: Centromere-binding protein 1, full length, His-tagged (CBF1, Saccharomyces cerevisiae, UniProt P17106, residues 1-351)
# Chain of UniProt P17106 (whole entry, looked up): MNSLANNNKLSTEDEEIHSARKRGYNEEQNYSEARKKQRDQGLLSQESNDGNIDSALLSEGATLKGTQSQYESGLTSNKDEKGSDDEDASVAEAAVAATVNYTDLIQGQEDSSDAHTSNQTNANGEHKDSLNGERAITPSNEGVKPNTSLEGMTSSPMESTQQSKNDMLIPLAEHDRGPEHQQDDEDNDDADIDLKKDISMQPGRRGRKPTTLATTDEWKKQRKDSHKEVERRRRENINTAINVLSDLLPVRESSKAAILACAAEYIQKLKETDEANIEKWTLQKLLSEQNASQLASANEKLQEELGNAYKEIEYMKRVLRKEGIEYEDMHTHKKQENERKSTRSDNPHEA
# Technique: competition protein-binding microarray
# Molecule type: double-stranded DNA, one strand shown
# Medium: in vitro
# Concentration: 2 µM
# Notes: whole 60-bp probe, lowest competitor level
# Added: Pho4 competitor, 0.05 µM
# Reading: higher = stronger binding
Strand,fluorescence intensity
CCTATTTTTCTTTTTTACGTGCTAAGGACGAAAAGTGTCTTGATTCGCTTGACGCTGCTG,90.4 a.u.
CAAGATCTTTGGCAAAACGTGGACCCCAACTTCGAAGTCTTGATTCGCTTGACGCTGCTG,107 a.u.
ATAGTTTGAACCGGTCCCGTGTGTTAGTGGTAGGACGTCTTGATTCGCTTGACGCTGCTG,231 a.u.
TTCAACAGGATCATTAATGTGACGGTCGATCGAAGCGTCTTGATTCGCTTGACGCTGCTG,63.5 a.u.
CATACCCAACCTTGGAAAGTGGGTGAAGATATTTGTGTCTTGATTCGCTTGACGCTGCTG,70.6 a.u.
GTCTTGTCTCATTGTGGCGTGGGTGTCCCCACTTCAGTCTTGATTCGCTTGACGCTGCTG,88.3 a.u.
GGAAAACCGCCCCATCACGCTGACCCCTTTGGCCCGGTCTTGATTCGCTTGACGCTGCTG,101 a.u.
AGCTAAGCGTCTACCCACGTAACAAACAATCTTGCCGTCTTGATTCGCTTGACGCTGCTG,78.5 a.u.
TTGCTTTATCGAAAATCCGTGATGGCGGTCCTTCAGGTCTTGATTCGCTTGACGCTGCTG,72.3 a.u.
AAATTACTAAGTTGATTCGTGGGTGACGCCGTATGAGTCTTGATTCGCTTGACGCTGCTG,84.4 a.u.
CTTGGTTACAGGTATCATGTGTGAAACTGTTTGCGGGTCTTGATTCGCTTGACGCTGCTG,165 a.u.
CATTTCTGGGAGCTGCATGTGGGTGACGCAGCAGCAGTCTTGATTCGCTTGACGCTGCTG,96.3 a.u.

# Study 2
# Target: CCNB1, cyclin fold, Cln2 fusion (human)
# Technique: yeast growth competition, sequencing
# Medium: yeast
# Notes: weak parent motif
# Baseline: not given
# Reading: higher = stronger binding
# Starting sequence: SCAPER docking peptide (human); SNARRSLNFGGST
Variant,normalised enrichment score
T13F,0.451
L7Q,0.997
F9I,0.491
F9H,0.592
S12E,0.736
F9R,0.828
G10S,0.149
R4V,0.866

# Study 3
# Target: PABPC1L2, full length, GST fusion (mouse, UniProt A0ABA7IW68)
# Technique: RNAcompete
# Molecule type: RNA
# Medium: in vitro
# Concentration: 20 nM
# Notes: 7-mer, probes averaged, single round
# Baseline: mean of 7-mers
# Reading: higher = stronger binding
# Target sequence (chain): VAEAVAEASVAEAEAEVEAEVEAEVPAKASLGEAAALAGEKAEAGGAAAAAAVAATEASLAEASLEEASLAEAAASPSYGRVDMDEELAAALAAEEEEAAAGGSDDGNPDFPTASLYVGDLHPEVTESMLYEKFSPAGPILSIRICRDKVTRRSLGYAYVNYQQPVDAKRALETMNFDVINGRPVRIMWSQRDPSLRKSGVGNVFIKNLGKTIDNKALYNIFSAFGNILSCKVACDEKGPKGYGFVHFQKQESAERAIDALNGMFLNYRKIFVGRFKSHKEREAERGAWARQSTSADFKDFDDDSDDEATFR
Strand,7-mer Z-score
GUCUUCC,-0.364
AUAGUAA,0.0768
CCUGCUU,-0.414
GGAGGAC,0.485
GUAAAAC,1.61
UUCGGAC,-0.251
GAUCAUC,-0.19

# Single results of other studies
Molecule,target,assay,test system,setting,scale,quantity,value
"PhoQ, residues 284 288 289 292 302 303 TYGVAM","PhoP, residues 12 14 15 18 19 NQFFI (Escherichia coli, UniProt P23836)","Sort-seq, item: YFP reporter",E. coli,"PhoQ-PhoP variant library, added: 10 µM Mg2+","baseline: high Mg2+ state, higher = stronger signaling",fold induction,31.8

# A few entries again (study 1):
Strand,fluorescence intensity
CATACCCAACCTTGGAAAGTGGGTGAAGATATTTGTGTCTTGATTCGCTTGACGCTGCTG,70.6 a.u.
GTCTTGTCTCATTGTGGCGTGGGTGTCCCCACTTCAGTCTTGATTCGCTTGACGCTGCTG,88.3 a.u.
GGAAAACCGCCCCATCACGCTGACCCCTTTGGCCCGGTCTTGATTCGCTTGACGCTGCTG,101 a.u.
AGCTAAGCGTCTACCCACGTAACAAACAATCTTGCCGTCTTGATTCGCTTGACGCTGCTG,78.5 a.u.
